Assay results gathered from unrelated publications.
Each line is one published result; not all experiments were run side by side. In brackets after ≈: the same amount, converted by molar mass.
UniProt O00750, sequence (whole entry, looked up): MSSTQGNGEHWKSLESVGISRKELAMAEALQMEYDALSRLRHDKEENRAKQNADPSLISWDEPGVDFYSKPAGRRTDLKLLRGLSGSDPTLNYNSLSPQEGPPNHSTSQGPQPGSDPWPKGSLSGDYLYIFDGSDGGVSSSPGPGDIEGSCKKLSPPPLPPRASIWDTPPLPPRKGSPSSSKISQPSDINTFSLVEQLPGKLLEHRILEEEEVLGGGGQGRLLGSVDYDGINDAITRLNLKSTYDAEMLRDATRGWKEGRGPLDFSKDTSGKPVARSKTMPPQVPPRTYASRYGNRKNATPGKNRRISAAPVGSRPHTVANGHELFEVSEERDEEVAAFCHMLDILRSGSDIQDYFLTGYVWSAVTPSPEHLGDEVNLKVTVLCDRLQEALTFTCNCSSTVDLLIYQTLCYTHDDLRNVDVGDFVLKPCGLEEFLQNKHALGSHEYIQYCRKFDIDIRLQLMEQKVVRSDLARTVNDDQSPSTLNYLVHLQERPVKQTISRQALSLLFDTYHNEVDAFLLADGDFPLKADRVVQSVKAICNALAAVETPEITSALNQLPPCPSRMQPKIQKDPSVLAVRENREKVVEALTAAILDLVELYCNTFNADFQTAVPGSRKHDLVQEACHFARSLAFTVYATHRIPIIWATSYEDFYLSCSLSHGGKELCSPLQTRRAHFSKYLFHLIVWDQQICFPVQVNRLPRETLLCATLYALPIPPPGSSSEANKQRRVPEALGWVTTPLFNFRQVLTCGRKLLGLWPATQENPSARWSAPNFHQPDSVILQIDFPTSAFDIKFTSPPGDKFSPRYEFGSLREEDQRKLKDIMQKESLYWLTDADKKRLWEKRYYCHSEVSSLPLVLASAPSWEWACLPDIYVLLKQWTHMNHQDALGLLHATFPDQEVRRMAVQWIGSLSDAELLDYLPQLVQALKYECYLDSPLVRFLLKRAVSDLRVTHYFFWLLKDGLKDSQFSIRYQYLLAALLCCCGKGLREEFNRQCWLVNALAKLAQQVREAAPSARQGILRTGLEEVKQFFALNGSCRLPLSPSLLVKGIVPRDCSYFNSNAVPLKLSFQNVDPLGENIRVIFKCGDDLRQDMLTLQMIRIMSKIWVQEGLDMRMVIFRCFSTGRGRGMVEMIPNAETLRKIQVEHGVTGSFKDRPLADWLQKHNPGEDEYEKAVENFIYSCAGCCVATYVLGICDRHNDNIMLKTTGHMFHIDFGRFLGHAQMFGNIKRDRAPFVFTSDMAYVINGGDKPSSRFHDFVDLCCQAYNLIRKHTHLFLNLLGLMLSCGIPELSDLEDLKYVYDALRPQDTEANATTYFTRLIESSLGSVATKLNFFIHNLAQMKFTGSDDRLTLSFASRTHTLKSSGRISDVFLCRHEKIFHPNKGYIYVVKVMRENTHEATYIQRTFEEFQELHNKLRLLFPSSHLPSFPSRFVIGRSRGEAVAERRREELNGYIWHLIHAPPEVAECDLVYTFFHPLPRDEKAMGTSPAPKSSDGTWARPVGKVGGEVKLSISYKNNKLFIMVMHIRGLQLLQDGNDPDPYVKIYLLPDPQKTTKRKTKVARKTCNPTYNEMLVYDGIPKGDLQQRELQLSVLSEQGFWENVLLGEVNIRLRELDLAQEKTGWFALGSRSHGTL
UniProt Q96J92, sequence (whole entry, looked up): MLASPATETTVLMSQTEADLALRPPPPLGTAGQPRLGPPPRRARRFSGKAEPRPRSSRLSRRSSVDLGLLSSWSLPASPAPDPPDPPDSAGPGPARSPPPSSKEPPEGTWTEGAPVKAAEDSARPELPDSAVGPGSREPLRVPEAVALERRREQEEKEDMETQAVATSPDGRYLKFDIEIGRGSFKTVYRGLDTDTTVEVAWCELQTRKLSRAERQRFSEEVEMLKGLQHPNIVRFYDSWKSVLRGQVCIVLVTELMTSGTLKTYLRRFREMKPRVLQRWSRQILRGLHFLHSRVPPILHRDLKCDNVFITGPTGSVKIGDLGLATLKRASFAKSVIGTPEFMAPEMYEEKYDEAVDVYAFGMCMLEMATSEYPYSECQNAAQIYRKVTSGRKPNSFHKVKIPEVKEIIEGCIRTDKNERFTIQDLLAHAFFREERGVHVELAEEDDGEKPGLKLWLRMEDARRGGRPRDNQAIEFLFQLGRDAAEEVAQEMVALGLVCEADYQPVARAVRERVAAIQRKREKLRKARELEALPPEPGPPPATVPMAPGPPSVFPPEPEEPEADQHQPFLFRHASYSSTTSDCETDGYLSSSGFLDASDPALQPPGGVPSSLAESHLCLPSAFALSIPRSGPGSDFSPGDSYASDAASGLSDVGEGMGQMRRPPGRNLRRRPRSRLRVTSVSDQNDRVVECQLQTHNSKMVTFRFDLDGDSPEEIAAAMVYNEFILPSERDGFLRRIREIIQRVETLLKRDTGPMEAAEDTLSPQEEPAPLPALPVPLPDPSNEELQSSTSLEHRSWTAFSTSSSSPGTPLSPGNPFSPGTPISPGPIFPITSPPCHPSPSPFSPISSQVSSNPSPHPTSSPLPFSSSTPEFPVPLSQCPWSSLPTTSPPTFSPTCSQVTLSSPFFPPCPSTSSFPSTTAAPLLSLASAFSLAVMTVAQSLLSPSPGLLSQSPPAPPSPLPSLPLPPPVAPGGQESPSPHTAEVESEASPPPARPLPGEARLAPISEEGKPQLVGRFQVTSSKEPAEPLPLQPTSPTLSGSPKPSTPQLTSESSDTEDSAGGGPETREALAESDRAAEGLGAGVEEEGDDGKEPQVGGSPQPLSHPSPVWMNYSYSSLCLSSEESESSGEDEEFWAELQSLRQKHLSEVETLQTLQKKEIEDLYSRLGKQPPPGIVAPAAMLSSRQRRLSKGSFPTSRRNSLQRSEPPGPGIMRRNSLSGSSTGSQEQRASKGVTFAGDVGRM
UniProt O75582, sequence (whole entry, looked up): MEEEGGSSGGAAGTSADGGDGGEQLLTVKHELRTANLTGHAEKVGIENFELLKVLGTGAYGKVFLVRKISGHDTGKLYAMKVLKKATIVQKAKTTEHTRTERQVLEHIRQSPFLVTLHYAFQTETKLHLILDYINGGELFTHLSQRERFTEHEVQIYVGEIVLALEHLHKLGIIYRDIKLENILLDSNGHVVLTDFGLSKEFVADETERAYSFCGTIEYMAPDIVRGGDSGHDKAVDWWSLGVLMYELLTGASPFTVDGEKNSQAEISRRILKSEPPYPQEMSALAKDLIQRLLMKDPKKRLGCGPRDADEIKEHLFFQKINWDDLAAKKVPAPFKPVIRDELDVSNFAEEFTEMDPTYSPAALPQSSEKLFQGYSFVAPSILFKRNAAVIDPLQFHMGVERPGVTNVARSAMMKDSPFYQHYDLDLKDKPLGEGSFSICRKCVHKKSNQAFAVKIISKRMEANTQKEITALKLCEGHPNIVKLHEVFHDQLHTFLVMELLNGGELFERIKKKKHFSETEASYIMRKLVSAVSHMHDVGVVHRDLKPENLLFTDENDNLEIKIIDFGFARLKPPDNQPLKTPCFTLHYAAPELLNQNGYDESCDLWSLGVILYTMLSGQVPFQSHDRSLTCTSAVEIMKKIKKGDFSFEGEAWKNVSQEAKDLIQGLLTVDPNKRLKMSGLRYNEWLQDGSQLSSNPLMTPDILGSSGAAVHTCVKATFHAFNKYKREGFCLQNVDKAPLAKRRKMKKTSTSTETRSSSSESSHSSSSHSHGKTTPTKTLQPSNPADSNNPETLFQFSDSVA
UniProt P00519, sequence (whole entry, looked up): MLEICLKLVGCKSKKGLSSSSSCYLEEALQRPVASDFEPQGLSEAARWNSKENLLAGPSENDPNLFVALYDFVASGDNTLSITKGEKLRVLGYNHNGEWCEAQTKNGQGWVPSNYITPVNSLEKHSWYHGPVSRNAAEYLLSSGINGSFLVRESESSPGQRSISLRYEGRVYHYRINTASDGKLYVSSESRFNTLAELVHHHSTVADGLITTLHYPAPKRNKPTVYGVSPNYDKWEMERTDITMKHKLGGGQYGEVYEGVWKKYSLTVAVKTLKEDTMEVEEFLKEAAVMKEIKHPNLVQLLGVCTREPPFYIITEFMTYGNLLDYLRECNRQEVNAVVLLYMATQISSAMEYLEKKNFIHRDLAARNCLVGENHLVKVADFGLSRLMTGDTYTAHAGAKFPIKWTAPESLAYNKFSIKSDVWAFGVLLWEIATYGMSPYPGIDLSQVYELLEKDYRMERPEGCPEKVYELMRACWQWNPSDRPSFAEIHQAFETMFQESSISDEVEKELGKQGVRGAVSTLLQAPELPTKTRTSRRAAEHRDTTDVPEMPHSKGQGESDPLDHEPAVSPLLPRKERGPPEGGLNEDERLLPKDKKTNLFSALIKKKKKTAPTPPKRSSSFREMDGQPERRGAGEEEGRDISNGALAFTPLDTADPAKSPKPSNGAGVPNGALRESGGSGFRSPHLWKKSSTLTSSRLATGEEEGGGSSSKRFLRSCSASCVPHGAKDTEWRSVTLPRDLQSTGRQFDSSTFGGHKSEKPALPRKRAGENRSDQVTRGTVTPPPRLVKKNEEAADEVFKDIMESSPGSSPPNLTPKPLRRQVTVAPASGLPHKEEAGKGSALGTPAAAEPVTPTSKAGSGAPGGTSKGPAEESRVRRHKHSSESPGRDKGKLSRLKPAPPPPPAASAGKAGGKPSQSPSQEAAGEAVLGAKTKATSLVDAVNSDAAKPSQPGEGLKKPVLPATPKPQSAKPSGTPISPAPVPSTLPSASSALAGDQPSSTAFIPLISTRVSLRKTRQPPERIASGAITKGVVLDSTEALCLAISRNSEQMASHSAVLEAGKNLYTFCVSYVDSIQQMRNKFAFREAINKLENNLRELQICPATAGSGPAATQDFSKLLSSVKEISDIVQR

Compound	tested on	test	system	conditions	quantity	value
CN(C)S(=O)(=O)c1ccc(Sc2ccccc2)c(C(=O)N2CCCC(C(N)=O)C2)c1 (centres unmarked)	Plasmodium falciparum	parasite growth, SYBR Green	3D7	72 h	EC50	0.0667 µM
COC(=O)c1cc(-c2cccc(NC(=O)Nc3cccc(C#N)c3)c2)on1	Mycolicibacterium fortuitum	microbial growth, broth dilution	ATCC6841	48 h	MIC	> 64 mg/L
[2H]c1c([2H])c([C@]2([2H])CCCN2C(=O)C(C)(C)Oc2ccc3cn[nH]c3c2)c([2H])c([2H])c1C([2H])([2H])[2H]	WNK4 (Homo sapiens, UniProt Q96J92)	binding, competition with immobilised ligand	–	1 µM	remaining binding	100%
C#Cc1ccc(C(=O)NN=Cc2cccc(C#C)c2O)cc1	Cryptococcus neoformans	microbial growth, broth dilution	–	pH 7.4	MIC80	0.015 mg/L (≈ 0.052 µM)
CC(=O)c1c(Cc2ccccc2Cl)c[nH]c1C	Plasmodium falciparum	parasite growth, SYBR Green	3D7	72 h	EC50	0.165 µM
C#Cc1ccc(C=NNC(=O)c2ccc(COC(C)C)cc2)c(O)c1	Candida albicans	microbial growth	–	pH 7.4	MIC80	1 mg/L (≈ 2.97 µM)
COc1ncccc1-c1cnn2ccc(N3CCN(C(=O)OC(C)C)CC3)nc12	PIK3C2B (Homo sapiens, UniProt O00750)	binding, competition with immobilised ligand	–	1 µM	remaining binding	92%
Nc1ncnc2c([C@@H]3N[C@H](CO)[C@@H](O)[C@H]3O)c[nH]c12	Dengue virus	viral replication	Vero 76, DENV2	29.6 µM	inhibition	51.5%
OC(Cn1cncn1)(Cn1cncn1)c1ccc(F)cc1F	Candida albicans	microbial killing, broth dilution	14936	48 h	MFC	> 64 µM
[18FH]	–	–	mouse, heart	intravenous, 1 h	tracer uptake	0.28 %ID/g
Cc1cc(Nc2ccc3c(c2)CCC3)n2ncnc2n1	Plasmodium falciparum	parasite growth, SYBR Green	3D7	72 h	EC50	16.1 µM
CC(=O)N1CCN(c2ccc(OCC3COC(Cn4ccnc4)(c4ccc(Cl)cc4Cl)O3)cc2)CC1 (centres unmarked)	Candida albicans	microbial killing, broth dilution	SP3876	48 h	MFC	> 64 µM
C#Cc1cccc(O)c1C=NNC(=O)c1ccc(Br)cc1	Candida albicans	microbial growth	–	pH 7.4	MIC80	8 mg/L (≈ 23.3 µM)
Cc1nn(C)cc1-c1nc2c(N3CCN(Cc4ccc(Cl)cc4)CC3)c(Cl)cnc2[nH]1	Tyrosine-protein kinase ABL1, non-phosphorylated (ABL1, Homo sapiens, UniProt P00519)	binding, competition with immobilised ligand	–	1 µM	remaining binding	94%
COC(=O)c1cc(-c2cccc(NC(=O)Nc3cc(OC)ccc3OC)c2)on1	Mycolicibacterium fortuitum	microbial growth, broth dilution	ATCC6841	48 h	MIC	> 64 mg/L
Nc1ncc(-c2nc(N3CCOCC3)nc(N3CCOCC3)n2)c(C(F)F)n1	EGFR (Homo sapiens, UniProt P00533, del747-752/P753S)	cell-free assay, competition with immobilised ligand	–	10 µM	remaining binding	85%
COC(=O)c1cc(-c2ccc(NC(=O)Nc3ccc(Cl)c(Cl)c3)cc2)on1	Klebsiella pneumoniae	microbial growth, broth dilution	BAA1705	–	MIC	> 64 mg/L
Cc1ccc(NNC(=O)c2nnc(CC34CC5CC(CC(C5)C3)C4)o2)cc1	Rhizoctonia solani	microbial growth	–	50 µg/mL	inhibition	48.7%
C#Cc1ccc(C=NNC(=O)c2ccc(Br)cc2Br)c(O)c1	Cryptococcus neoformans	microbial killing	–	–	MFC	0.25 mg/L
CCOc1cccc(=O)c2c(C)n(Cc3ccc(Cl)cc3)c(C)c12	Plasmodium falciparum	parasite growth, SYBR Green	3D7	72 h	EC50	0.106 µM
COC(=O)c1cc(-c2cccc(NC(=O)Nc3ccc(F)cc3F)c2)on1	Mycolicibacterium fortuitum	microbial growth, broth dilution	ATCC6841	48 h	MIC	> 64 mg/L
C#Cc1n[nH]c2c(-c3cn(C(C)c4ccccn4)c(=O)[nH]c3=O)cc(F)cc12 (centres unmarked)	RPS6KA5 (Homo sapiens, UniProt O75582)	enzyme activity, inhibitor	–	1 µM	inhibition	7.6%
C#Cc1cccc(O)c1C=NNC(=O)c1ccc(Br)cc1Br	Cryptococcus neoformans	microbial growth, broth dilution	–	pH 7.4	MIC80	0.031 mg/L (≈ 0.0734 µM)
COC(=O)c1cc(-c2cccc(NC(=O)Nc3cccc(Br)c3)c2)on1	Mycolicibacterium fortuitum	microbial growth, broth dilution	ATCC6841	48 h	MIC	> 64 mg/L
C#Cc1cc(O)c(C=NNC(=O)c2ccc(Br)c(Br)c2)cc1C#C	Cryptococcus neoformans	microbial growth, broth dilution	–	pH 7.4	MIC80	0.12 mg/L (≈ 0.269 µM)
COC(=O)c1cc(-c2cccc(NC(=O)Nc3ccc(Cl)c(Cl)c3)c2)on1	Pseudomonas aeruginosa	microbial growth, broth dilution	ATCC27853	–	MIC	> 64 mg/L

A few entries again:
Compound	tested on	test	system	conditions	quantity	value
C#Cc1cccc(O)c1C=NNC(=O)c1ccc(Br)cc1	Candida albicans	microbial growth	–	pH 7.4	MIC80	8 mg/L (≈ 23.3 µM)
Cc1nn(C)cc1-c1nc2c(N3CCN(Cc4ccc(Cl)cc4)CC3)c(Cl)cnc2[nH]1	Tyrosine-protein kinase ABL1, non-phosphorylated (ABL1, Homo sapiens, UniProt P00519)	binding, competition with immobilised ligand	–	1 µM	remaining binding	94%
COC(=O)c1cc(-c2cccc(NC(=O)Nc3cc(OC)ccc3OC)c2)on1	Mycolicibacterium fortuitum	microbial growth, broth dilution	ATCC6841	48 h	MIC	> 64 mg/L
